Experimental data pooled from the literature.
“And” joins repeats or separate records; there may be more than shown. ± gives the spread as reported.
CNR1: Cannabinoid receptor 1 (CNR1, Homo sapiens, UniProt P21554)

SMILES	target	assay	system	setting	scale	quantity	result
N[C@H](C(=O)N1CCCC1)C1CCN(c2nccc3c(-c4ncc(Cl)cc4Cl)cccc23)CC1	CNR1	functional response, agonist	–	10 µM	–	response	-61%
Cc1cc(Nc2nc(C[C@@]3(C(=O)O)CCN(Cc4cccc(Cl)c4F)[C@H](C)C3)cc(C)c2F)[nH]n1	CNR1	inhibitor	–	10 µM	–	inhibition	-2.07%
O=[N+]([O-])CC(c1ccco1)c1c(-c2ccccc2)[nH]c2ccccc12 (stereo not shown)	Cannabinoid receptor 1, with Gz (CNR1, Homo sapiens, UniProt P21554)	Gz dissociation, agonist, BRET	–	–	–	Emax	31.3 ± 6.26%
CCCCCn1cc(C(=O)c2cccc3ccccc23)c2ccccc21	CNR1 (Homo sapiens, UniProt P21554, F170A)	Gαi1 engagement, agonist, BRET	–	–	baseline: reference agonist at wild-type CB1	Emax	37.7 ± 4.7%
Cc1cc(-c2ccc3ccccc3c2)nnc1NCCN1CCN(C)CC1	CNR1	antagonist	–	10000 nM	baseline: control	activity	5%
CCCCCn1ccc(C(=O)NC(C)(C)c2ccc(-c3nn[nH]n3)cc2)n1	CNR1	agonist, calcium mobilization	CHO	concentration not given	–	activity	inactive
CCc1nnc(-c2c(OC)cc(-c3cnc4cc(-c5cnn(C)c5)ccn34)cc2OC)o1	CNR1	agonist radioligand, radioligand binding	–	10 µM, SafetyScreen44 CB1	–	inhibition	-25%
Cc1ccc2c(n1)c(-c1cccc(S(C)(=O)=O)c1)c(C)n2C/C(F)=C/CN	CNR1	ligand displacement, radioligand	–	10 µM	–	inhibition	11%
COC(=O)[C@@H](NC(=O)c1nn(Cc2ccc(F)cc2)c2cc(OCCCCNC(N)=O)ccc12)C(C)(C)C	Cannabinoid receptor 1, with Gi3 (CNR1, Homo sapiens, UniProt P21554)	GTP turnover, agonist, measured: Gi3 Gα subtype	–	–	–	maximal efficacy	128%
CCN(CC)CCOc1ccc(-c2nnn(Cc3ccc(OC)cc3)c2N)cc1	CNR1	radioligand binding	CHO-K1	10 µM, safety profiling	–	inhibition	1.75%
COC(=O)[C@@H](NC(=O)c1nn(Cc2ccc(F)cc2)c2cc(OCCCCNC(=N)N)ccc12)C(C)(C)C	Cannabinoid receptor 1, with Goa (CNR1, Homo sapiens, UniProt P21554)	GTP turnover, agonist, measured: Goa Gα subtype	–	–	–	maximal efficacy	118%
COc1ccccc1C(C[N+](=O)[O-])c1c(-c2ccccc2)[nH]c2ccccc12 (stereo not shown)	CNR1 (Homo sapiens, UniProt P21554, P394A)	Gαi1-γ2 dissociation, BRET	–	–	–	Emax	91.6 ± 3.64%
CC(=O)Nc1ccc(C(C)(C)NC(=O)c2ccn(Cc3ccc(F)cc3)n2)c(Cl)c1	CNR1	calcium signal, agonist, fluorescence	–	–	–	Emax	27%
CCCCCn1cc(C(=O)c2ccc3ccccc3c2)c2ccccc21	CNR1	agonist, BRET	–	–	baseline: Gαi1 over β-arrestin 2, reference agonist	bias factor (ΔΔlog(Emax/EC50))	0.36
CCCCCn1ccc(C(=O)NC(C)(C)c2ccc(NC(C)=O)cc2)n1	CNR1	calcium signal, agonist, fluorescence	–	–	–	Emax	78%
CN[C@@H]1[C@H](O)[C@H](NC)[C@H]2O[C@]3(O)[C@H](O[C@@H]2[C@H]1O)O[C@H](C)C[C@H]3NC(=O)Cc1ccc(Cl)cn1	CNR1	ligand displacement, radioligand	–	10 µM	–	inhibition	8%
CCCCCn1ccc(C(=O)NC(C)(C)c2ccc(NC(C)=O)cc2Cl)n1	CNR1	calcium signal, agonist, fluorescence	–	–	–	Emax	71%
C/C(=N\OCCCN1CCCCC1)c1ccc(C(F)(F)F)cc1	CNR1	agonist, cAMP	–	10 µM	–	activation	0.56%
Cc1ccc2c(C(C[N+](=O)[O-])c3cccs3)c(-c3ccccc3)[nH]c2c1 (stereo not shown)	CNR1 (Homo sapiens, UniProt P21554, I245L)	Gαi1-γ2 dissociation, BRET	–	–	–	Emax	110 ± 5.57%
Cc1sc2c(c1C)C(c1ccc(Cl)cc1)=NC(CC(=O)OC(C)(C)C)c1nnc(C)n1-2 (stereo not shown)	CNR1	ligand displacement, radioligand	–	1 µM	–	inhibition	0%
CC(C)[C@H](NC(=O)c1ccn(Cc2ccc(F)cc2)n1)C(N)=O	CNR1	calcium signal, agonist, fluorescence	–	–	–	Emax	96%
O=C(O)c1ccc(-c2nc(-c3ccccc3Cl)c3sccn23)cc1	CNR1	radioligand binding, safety screen panel	–	10 µM	baseline: control	specific binding	99.8% and 97.3%

Repeated from above:
SMILES	target	assay	system	setting	scale	quantity	result
CCCCCn1ccc(C(=O)NC(C)(C)c2ccc(-c3nn[nH]n3)cc2)n1	CNR1	agonist, calcium mobilization	CHO	concentration not given	–	activity	inactive
Cc1cc(-c2ccc3ccccc3c2)nnc1NCCN1CCN(C)CC1	CNR1	antagonist	–	10000 nM	baseline: control	activity	5%
